# Assay results from different studies.
# Every numbered part comes from another study and shows a few of its results, in no order.

# Series 1 — technique: protein-binding microarray; form: double-stranded DNA, one strand shown; medium: in vitro; concentration: 250 nM; setting: 60-bp whole probe; added: salmon DNA 0.4 mg/ml; relative to: random background probes; direction: higher = stronger binding
# Target: Interferon regulatory factor 7, full length, phosphomimetic (IRF7, Homo sapiens, UniProt Q92985, residues 1-503, S101K/S471D/S472D/S475D/S476D/S477D/S483D/S484D/S487D)
# Target sequence (chain): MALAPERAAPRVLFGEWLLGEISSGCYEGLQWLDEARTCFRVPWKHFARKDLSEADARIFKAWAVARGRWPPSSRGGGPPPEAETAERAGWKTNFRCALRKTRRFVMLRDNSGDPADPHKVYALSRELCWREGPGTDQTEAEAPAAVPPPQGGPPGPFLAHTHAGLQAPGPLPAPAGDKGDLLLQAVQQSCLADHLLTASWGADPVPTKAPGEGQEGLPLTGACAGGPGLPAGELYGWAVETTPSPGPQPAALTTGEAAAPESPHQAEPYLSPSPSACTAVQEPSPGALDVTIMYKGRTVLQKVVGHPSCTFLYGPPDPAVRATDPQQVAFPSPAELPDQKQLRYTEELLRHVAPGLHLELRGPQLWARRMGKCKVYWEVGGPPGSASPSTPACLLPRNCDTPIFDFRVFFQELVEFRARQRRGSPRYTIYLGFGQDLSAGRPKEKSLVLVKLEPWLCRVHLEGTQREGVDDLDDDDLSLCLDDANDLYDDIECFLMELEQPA
Sequence,log fluorescence
GCCTAGCACGACGATCTCAGACTGGAGAGGTGCTAGGTCTTGATTCGCTTGACGCTGCTG,-0.705 z-score
GCCTAGCACTTAGGACTGCTTTTCCATTAGTGCTAGGTCTTGATTCGCTTGACGCTGCTG,1.29 z-score
GCCTAGCACGACGGCTTCGACTATCGGGACGTGCTAGTCTTGATTCGCTTGACGCTGCTG,-0.7 z-score
GCCTAGCACTTAGGACTGGGTTCCGGTTAGTGCTAGGTCTTGATTCGCTTGACGCTGCTG,1.43 z-score

# Series 2 — technique: Spec-seq; form: double-stranded DNA, one strand shown; medium: in vitro; concentration: not given; setting: whole probe, mean of replicates; relative to: not given; direction: lower = stronger binding
# Target: POU, POU domain (Salpingoeca helianthica)
# Shared flanks, not repeated: GAGTCGTCTCGTCAGCACAT … ATCCGTAGAGCACTCAGGTC
# Residues (chain): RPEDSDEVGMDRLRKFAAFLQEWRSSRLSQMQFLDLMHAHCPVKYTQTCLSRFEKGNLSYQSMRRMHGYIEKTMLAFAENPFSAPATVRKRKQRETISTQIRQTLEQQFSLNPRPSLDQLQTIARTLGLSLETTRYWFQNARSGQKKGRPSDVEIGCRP
Sequence,relative binding energy [ln ratio]
CAGA,1.09
CTTC,1.02
GACT,1.21
CGTT,-0.779
ATGA,1.07

# Series 3 — technique: protein binding microarray; form: double-stranded DNA, one strand shown; medium: in vitro; concentration: not given; relative to: not given; direction: higher = stronger binding
# Target: Histone acetyltransferase KAT6A, winged helix 1, GST fusion (KAT6A, Homo sapiens, UniProt Q92794, residues 1-85)
# Setting: 8-mer, flanks averaged, mean of 2 arrays, mostly near background
# Construct (chain): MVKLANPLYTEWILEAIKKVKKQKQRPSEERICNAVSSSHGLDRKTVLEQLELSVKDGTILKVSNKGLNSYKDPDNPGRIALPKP
Sequence,E-score
GAAGATGA,-0.122
CGCGGCAA,0.432
ACTTCGCC,0.0388
GTGAGAGA,-0.165
CCATGGGA,-0.192
ACTACCGC,0.291
AATTGATC,-0.0396

# Other studies, line by line
Molecule,target,assay,test system,conditions,scale,endpoint,value
"PhoQ, residues 284 288 289 292 302 303 WSHMKI","PhoP, residues 12 14 15 18 19 SYFRT (Escherichia coli, UniProt P23836)","Sort-seq, refers to: YFP reporter",E. coli,"PhoQ-PhoP variant library, added: 10 µM Mg2+","relative to: high Mg2+ state, higher = stronger signaling",fold induction,0.764
